{"data": "Measured values gathered from unrelated publications", "PARP2": "Poly [ADP-ribose] polymerase 2 (PARP2, Homo sapiens, UniProt Q9UGN5)", "DRD3": "D(3) dopamine receptor (DRD3, Homo sapiens, UniProt P35462)", "HDAC8": "Histone deacetylase 8 (HDAC8, Homo sapiens, UniProt Q9BY41)", "CES2": "Cocaine esterase (CES2, Homo sapiens, UniProt O00748)", "PARP10": "Protein mono-ADP-ribosyltransferase PARP10 (PARP10, Homo sapiens, UniProt Q53GL7)", "PIK3CB": "Phosphatidylinositol 4,5-bisphosphate 3-kinase catalytic subunit beta isoform (PIK3CB, Homo sapiens, UniProt P42338)", "ALOX15": "Polyunsaturated fatty acid lipoxygenase ALOX15 (ALOX15, Homo sapiens, UniProt P16050)", "note": "Values joined by “and” are separate records of one study, mostly repeats; a detail may differ.", "sequence of UniProt Q9BY41 (whole entry, looked up)": "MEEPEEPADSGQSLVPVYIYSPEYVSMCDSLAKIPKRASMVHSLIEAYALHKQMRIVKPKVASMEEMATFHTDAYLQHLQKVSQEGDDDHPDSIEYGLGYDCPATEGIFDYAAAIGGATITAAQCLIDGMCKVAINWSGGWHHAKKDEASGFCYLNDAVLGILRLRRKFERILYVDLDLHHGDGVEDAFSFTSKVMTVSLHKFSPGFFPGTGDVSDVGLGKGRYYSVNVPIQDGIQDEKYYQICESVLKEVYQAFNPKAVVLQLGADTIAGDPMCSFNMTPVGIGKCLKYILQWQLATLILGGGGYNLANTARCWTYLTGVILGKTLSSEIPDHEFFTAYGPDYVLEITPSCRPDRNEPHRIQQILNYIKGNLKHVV", "sequence of UniProt Q9UGN5 (whole entry, looked up)": "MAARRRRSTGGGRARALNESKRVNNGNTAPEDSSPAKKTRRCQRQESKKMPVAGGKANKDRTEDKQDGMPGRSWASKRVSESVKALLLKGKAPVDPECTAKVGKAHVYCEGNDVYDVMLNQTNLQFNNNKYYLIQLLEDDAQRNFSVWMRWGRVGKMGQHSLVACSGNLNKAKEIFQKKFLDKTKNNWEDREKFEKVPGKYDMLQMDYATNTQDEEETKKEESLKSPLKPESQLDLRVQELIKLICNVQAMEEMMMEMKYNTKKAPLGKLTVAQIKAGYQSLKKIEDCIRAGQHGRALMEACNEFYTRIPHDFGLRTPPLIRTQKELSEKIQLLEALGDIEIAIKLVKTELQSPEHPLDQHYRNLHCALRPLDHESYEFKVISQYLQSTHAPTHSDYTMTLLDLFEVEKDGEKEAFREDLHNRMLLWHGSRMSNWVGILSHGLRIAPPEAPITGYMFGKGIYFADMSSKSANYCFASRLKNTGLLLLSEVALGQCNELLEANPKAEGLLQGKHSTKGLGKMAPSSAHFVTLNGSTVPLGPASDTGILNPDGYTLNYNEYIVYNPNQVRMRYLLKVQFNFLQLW", "sequence of UniProt P35462 (whole entry, looked up)": "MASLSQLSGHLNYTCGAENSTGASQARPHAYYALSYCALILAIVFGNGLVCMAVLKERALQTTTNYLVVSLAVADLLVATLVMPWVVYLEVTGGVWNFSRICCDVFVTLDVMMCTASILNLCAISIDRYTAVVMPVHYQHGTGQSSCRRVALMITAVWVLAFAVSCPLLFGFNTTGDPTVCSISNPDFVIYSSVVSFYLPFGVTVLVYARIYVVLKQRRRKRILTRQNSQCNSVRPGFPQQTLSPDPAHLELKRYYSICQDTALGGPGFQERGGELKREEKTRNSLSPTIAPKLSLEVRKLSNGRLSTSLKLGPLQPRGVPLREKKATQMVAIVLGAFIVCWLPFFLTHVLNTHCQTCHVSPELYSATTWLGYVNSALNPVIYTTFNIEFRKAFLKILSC", "sequence of UniProt P42338 (whole entry, looked up)": "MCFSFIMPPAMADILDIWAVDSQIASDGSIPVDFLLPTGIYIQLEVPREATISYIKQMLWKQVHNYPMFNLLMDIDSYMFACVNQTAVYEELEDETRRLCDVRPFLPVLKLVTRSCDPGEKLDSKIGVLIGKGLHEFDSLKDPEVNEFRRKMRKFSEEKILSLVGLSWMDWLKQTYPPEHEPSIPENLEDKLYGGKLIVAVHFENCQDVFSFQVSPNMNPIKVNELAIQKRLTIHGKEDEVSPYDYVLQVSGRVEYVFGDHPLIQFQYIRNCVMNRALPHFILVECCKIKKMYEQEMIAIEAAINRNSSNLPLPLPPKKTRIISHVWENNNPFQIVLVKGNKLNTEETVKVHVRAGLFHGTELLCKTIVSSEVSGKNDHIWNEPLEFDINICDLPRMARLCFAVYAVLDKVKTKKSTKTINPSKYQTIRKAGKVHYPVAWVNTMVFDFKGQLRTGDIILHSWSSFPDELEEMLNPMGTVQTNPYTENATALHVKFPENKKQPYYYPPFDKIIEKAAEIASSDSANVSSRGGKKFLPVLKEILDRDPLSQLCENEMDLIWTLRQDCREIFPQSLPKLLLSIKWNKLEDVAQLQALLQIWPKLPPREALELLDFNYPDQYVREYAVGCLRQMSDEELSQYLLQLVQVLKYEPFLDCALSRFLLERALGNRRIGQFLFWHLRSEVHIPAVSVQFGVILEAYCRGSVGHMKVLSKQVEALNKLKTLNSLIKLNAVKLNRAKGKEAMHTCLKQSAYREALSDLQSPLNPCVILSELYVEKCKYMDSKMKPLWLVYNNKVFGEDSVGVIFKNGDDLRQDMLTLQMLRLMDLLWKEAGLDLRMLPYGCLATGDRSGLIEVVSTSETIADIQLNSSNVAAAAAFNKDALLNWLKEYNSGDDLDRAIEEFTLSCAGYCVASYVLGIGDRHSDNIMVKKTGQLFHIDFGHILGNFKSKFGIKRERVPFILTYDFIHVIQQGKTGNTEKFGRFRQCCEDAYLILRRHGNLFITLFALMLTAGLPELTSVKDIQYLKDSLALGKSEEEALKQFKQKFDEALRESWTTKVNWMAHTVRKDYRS", "sequence of UniProt O00748 (whole entry, looked up)": "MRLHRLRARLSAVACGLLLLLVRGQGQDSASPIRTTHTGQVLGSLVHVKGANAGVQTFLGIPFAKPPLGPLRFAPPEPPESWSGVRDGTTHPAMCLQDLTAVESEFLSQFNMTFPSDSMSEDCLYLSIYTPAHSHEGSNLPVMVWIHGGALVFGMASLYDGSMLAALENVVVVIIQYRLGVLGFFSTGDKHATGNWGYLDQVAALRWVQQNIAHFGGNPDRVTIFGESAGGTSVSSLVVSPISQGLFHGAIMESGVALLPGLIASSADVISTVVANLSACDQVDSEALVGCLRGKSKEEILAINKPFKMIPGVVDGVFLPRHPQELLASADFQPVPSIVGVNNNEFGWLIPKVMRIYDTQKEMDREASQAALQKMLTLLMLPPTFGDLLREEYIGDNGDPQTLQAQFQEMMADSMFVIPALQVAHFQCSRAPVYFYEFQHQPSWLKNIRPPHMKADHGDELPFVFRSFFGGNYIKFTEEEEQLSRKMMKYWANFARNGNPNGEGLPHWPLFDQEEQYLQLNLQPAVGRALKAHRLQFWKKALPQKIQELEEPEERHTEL", "sequence of UniProt P16050 (whole entry, looked up)": "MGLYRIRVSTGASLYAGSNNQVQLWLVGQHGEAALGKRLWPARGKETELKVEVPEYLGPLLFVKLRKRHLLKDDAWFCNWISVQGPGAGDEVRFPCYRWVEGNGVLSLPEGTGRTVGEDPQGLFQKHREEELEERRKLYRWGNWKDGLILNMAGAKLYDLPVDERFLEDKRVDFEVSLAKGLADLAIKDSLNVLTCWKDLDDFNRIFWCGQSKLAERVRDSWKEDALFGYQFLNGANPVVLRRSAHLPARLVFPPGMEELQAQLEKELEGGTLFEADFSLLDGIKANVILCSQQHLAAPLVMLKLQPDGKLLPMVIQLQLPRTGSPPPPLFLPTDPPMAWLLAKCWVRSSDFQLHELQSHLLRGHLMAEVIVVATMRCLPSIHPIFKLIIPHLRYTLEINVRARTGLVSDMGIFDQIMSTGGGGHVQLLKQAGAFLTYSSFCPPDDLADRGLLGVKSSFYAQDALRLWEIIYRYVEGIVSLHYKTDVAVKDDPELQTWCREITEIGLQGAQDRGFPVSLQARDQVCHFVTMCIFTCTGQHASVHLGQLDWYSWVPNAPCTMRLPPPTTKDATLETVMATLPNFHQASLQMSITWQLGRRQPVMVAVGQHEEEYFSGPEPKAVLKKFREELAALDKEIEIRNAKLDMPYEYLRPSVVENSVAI", "sequence of UniProt P09874 (whole entry, looked up)": "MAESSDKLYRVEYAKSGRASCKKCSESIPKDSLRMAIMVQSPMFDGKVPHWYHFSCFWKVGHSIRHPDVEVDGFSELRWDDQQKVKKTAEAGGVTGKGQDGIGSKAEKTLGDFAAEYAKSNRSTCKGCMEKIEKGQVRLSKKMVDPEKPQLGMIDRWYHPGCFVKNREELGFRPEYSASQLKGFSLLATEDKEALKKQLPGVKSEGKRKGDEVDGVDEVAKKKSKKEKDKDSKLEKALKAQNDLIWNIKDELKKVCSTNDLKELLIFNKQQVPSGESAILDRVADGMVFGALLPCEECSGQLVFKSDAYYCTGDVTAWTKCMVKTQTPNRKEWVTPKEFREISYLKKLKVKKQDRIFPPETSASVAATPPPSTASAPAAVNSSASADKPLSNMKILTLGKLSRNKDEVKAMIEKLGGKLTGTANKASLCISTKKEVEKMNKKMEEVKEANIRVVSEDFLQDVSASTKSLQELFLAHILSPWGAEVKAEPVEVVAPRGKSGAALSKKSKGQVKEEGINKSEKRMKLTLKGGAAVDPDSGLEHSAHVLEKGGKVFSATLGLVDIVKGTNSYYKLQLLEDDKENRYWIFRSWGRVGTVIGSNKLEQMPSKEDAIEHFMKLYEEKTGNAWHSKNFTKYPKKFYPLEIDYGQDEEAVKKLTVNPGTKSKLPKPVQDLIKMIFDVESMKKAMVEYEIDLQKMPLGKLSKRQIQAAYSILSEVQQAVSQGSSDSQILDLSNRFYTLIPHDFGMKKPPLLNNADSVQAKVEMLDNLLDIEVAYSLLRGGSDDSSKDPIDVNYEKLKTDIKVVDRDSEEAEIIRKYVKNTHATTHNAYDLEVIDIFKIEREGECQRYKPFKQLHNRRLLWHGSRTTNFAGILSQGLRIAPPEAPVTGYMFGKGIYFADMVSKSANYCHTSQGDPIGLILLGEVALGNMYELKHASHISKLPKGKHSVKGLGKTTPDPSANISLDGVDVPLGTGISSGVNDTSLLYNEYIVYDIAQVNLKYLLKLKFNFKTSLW", "sequence of UniProt Q8N6T7 (whole entry, looked up)": "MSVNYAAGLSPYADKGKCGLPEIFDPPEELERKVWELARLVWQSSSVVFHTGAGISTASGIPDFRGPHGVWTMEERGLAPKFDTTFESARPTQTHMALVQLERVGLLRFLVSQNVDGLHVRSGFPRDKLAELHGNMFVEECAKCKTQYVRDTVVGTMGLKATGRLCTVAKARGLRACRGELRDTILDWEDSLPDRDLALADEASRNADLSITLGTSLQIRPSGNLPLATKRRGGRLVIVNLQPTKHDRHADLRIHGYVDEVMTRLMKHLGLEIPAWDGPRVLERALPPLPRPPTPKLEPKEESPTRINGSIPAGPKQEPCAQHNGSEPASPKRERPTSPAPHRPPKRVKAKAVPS"}
{"SMILES": "COc1cccc(Cn2nnc3c4ccc(F)cc4c(=O)[nH]c32)c1", "target": "PARP2", "test": "enzyme activity, inhibitor", "IC50": "> 10 µM"}
{"SMILES": "COc1nc(N)nc(N)c1OCCCOc1ccccc1CCC(=O)O", "target": "Dihydrofolate reductase (Mycobacterium avium, UniProt O30463)", "test": "enzyme activity, inhibitor", "IC50": "> 5 µM"}
{"SMILES": "Nc1ncnc2c1c(Oc1cc(C(F)(F)F)ccn1)nn2C1CC1", "target": "Cytochrome P450 1A2 (CYP1A2, Homo sapiens, UniProt P05177)", "test": "enzyme activity, inhibitor", "system": "human, liver microsomes", "conditions": "10 min", "IC50": "< 1 µM and 0.46 µM"}
{"SMILES": "Cc1[nH]c(C)c(S(=O)(=O)Nc2ccc(C(=O)C(F)(F)F)c(Cl)c2)c1C(=O)N1CCC(F)(F)C1", "target": "DRD3", "test": "β-arrestin recruitment, antagonist", "IC50": "11.5 µM"}
{"SMILES": "O=C(NO)c1cccc(OS(=O)(=O)Oc2ccc(C(F)(F)F)cc2)c1", "target": "HDAC8", "test": "enzyme activity, inhibitor, fluorescence", "IC50": "1.22 µM"}
{"SMILES": "Fc1ccc(Cc2[nH]nc(-c3ccccn3)c2-c2ccnc3ccccc23)cc1", "target": "Serine/threonine protein kinase YCK2 (YCK2, Candida albicans, UniProt A0A1D8PKB4)", "test": "enzyme activity, inhibitor, ADP detection", "IC50": "> 4 µM and 7 µM"}
{"SMILES": "CCOC(=O)N1CCC(=C2c3ccc(Cl)cc3CCc3cccnc32)CC1", "target": "CES2", "test": "enzyme activity, inhibitor, fluorescence", "conditions": "with preincubation", "IC50": "9 µM"}
{"SMILES": "O=c1[nH]c2c(nnn2Cc2ccc(C(F)(F)F)cc2)c2ccc(F)cc12", "target": "PARP10", "test": "enzyme activity, inhibitor", "IC50": "> 10 µM"}
{"SMILES": "Nc1nc2c(s1)C(c1ccccc1Cl)CC(=O)N2 (stereo not shown)", "target": "Aldehyde dehydrogenase 1A1 (ALDH1A1, Homo sapiens, UniProt P00352)", "test": "enzyme activity, inhibitor, fluorescence", "IC50": "< 10 µM"}
{"SMILES": "FC(F)(F)Oc1ccc(Oc2ccnc(N3CCC(NC(=S)Nc4cccnc4)CC3)c2Cl)c(Cl)c1", "target": "Lysophosphatidylserine lipase ABHD12 (Homo sapiens, UniProt Q8N2K0)", "test": "enzyme activity, inhibitor", "conditions": "lysate", "IC50": "0.089 µM"}
{"SMILES": "Cc1cc(C)c(OS(=O)(=O)Oc2cccc(C(=O)NO)c2)c(C)c1", "target": "HDAC8", "test": "enzyme activity, inhibitor, fluorescence", "IC50": "0.244 µM"}
{"SMILES": "CCN(CC)CCNC(=O)c1c(C)[nH]c(/C=C2\\C(=O)Nc3ccc(F)cc32)c1C", "target": "CES2", "test": "enzyme activity, inhibitor, fluorescence", "conditions": "with preincubation", "IC50": "52.4 µM"}
{"SMILES": "O=c1[nH]c2c(nnn2-c2ccccc2)c2ccc(F)cc12", "target": "PARP2", "test": "enzyme activity, inhibitor", "IC50": "> 10 µM"}
{"SMILES": "Cc1[nH]c(C)c(S(=O)(=O)Nc2ccc(C(F)(F)F)c(Cl)c2Cl)c1C(=O)N1CCC(F)(F)C1", "target": "DRD3", "test": "β-arrestin recruitment, antagonist", "IC50": "0.68 µM"}
{"SMILES": "NC(=O)c1ccc(C(=O)NOCc2cccc(C(F)(F)F)c2)cc1", "target": "NAD-dependent protein deacylase sirtuin-6 (SIRT6, Homo sapiens, UniProt Q8N6T7)", "test": "enzyme activity, inhibitor, fluorescence", "IC50": "2.76 µM"}
{"SMILES": "Cc1[nH]c(C)c(S(=O)(=O)Nc2ccc(C(=O)C3CC3)c(Cl)c2)c1C(=O)N1CCC(F)(F)C1", "target": "DRD3", "test": "β-arrestin recruitment, antagonist", "IC50": "8.1 µM"}
{"SMILES": "CN1CCN(c2ccc(Nc3ncc4cc(C#N)c(=O)n(C5CCCC5)c4n3)cc2)CC1", "target": "Activin receptor type-1B (ACVR1B, Homo sapiens, UniProt P36896)", "test": "enzyme activity, inhibitor", "IC50": "8.59 µM"}
{"SMILES": "CCC(C(=O)N1C(=O)C(=Nc2ccc(Cl)cc2Br)c2ccccc21)c1ccccc1 (stereo not shown)", "target": "PIK3CB", "test": "enzyme activity, inhibitor, ADP detection", "IC50": "0.145 µM"}
{"SMILES": "Cc1cc(C(C)(C)C)ccc1OS(=O)(=O)Oc1cc(F)cc(C(=O)NO)c1", "target": "HDAC8", "test": "enzyme activity, inhibitor, fluorescence", "IC50": "10.3 µM"}
{"SMILES": "O=C1C(=Nc2ccc(Cl)cc2)c2ccccc2N1Cc1ccc(Br)cc1", "target": "PIK3CB", "test": "enzyme activity, inhibitor, ADP detection", "IC50": "0.0672 µM"}
{"SMILES": "O=C(NO)c1cc(F)cc(OS(=O)(=O)Oc2ccccc2)c1", "target": "HDAC8", "test": "enzyme activity, inhibitor, fluorescence", "IC50": "1.07 µM"}
{"SMILES": "CC(C)(C)c1ccc(C(O)CCCN2CCC(C(O)(c3ccccc3)c3ccccc3)CC2)cc1 (stereo not shown)", "target": "CES2", "test": "enzyme activity, inhibitor, fluorescence", "conditions": "with preincubation", "IC50": "12.8 µM"}
{"SMILES": "O=C(NO)c1cccc(OS(=O)(=O)Oc2ccc3c(c2)OCO3)c1", "target": "HDAC8", "test": "enzyme activity, inhibitor, fluorescence", "IC50": "0.091 µM"}
{"SMILES": "O=C1C(=Nc2ccccc2I)c2ccccc2N1Cc1cccc(Cl)c1", "target": "PIK3CB", "test": "enzyme activity, inhibitor, ADP detection", "IC50": "0.266 µM"}
{"SMILES": "Cc1cc(C(C)(C)C)ccc1OS(=O)(=O)Oc1cccc(C(=O)NO)c1", "target": "Protein deacetylase HDAC6 (HDAC6, Homo sapiens, UniProt Q9UBN7)", "test": "enzyme activity, inhibitor, fluorescence", "IC50": "3.58 µM"}
{"SMILES": "COc1ccc(Cn2nnc3c4ccc(F)cc4c(=O)[nH]c32)cc1", "target": "PARP10", "test": "enzyme activity, inhibitor", "IC50": "> 10 µM"}
{"SMILES": "Cc1ccc(NS(=O)(=O)c2c(C)[nH]c(C)c2C(=O)N2CCC(F)(F)C2)nc1Cl", "target": "DRD3", "test": "G protein activation, antagonist, BRET", "IC50": "16 µM"}
{"SMILES": "C=CCN1C(=O)C(=Nc2cccc(C)c2)c2ccccc21", "target": "PIK3CB", "test": "enzyme activity, inhibitor, ADP detection", "IC50": "0.835 µM"}
{"SMILES": "COc1cc2c(cc1OC)C(=O)/C(=C/c1cccnc1)C2", "target": "CES2", "test": "enzyme activity, inhibitor, fluorescence", "conditions": "with preincubation", "IC50": "8.08 µM"}
{"SMILES": "CCOC(=O)c1ccccc1-c1c2ccc(=O)cc-2oc2cc(OCCCNc3c(-c4cccc(C=O)c4)nc4ccccn34)ccc12", "target": "ALOX15", "test": "enzyme activity, inhibitor, absorbance", "IC50": "> 100 µM"}
{"SMILES": "Cc1[nH]c(C)c(S(=O)(=O)Nc2ccc(C(F)(F)F)c(Cl)c2)c1C(=O)NCC(F)(F)F", "target": "DRD3", "test": "β-arrestin recruitment, antagonist", "IC50": "14 µM"}
{"SMILES": "Cc1nc(Nc2ccc3c(c2)/C(=C/c2ccccc2)C(=O)N3C)c2ccccc2n1", "target": "PIK3CB", "test": "enzyme activity, inhibitor, ADP detection", "IC50": "0.49 µM"}
{"SMILES": "N#C[C@@]12C[C@@H]1[C@@H](n1cnc3c(N[C@@H](C4CCC4)C4CC4)nc(I)nc31)[C@H](O)[C@@H]2O", "target": "Cytochrome P450 2D6 (CYP2D6, Homo sapiens, UniProt P10635)", "test": "enzyme activity, inhibitor", "IC50": "> 20 µM and 24.2 µM"}
{"SMILES": "O=C(NO)c1cccc(OS(=O)(=O)Oc2cccc(-c3ccccc3)c2)c1", "target": "HDAC8", "test": "enzyme activity, inhibitor, fluorescence", "IC50": "0.718 µM"}
{"SMILES": "Cc1nc(Nc2ccc3c(c2)/C(=C/c2ccccc2C)C(=O)N3)c2ccccc2n1", "target": "PIK3CB", "test": "enzyme activity, inhibitor, ADP detection", "IC50": "0.0715 µM"}
{"SMILES": "O=c1[nH]c2c(nnn2Cc2c(F)c(F)c(F)c(F)c2F)c2ccc(F)cc12", "target": "PARP2", "test": "enzyme activity, inhibitor", "IC50": "> 10 µM"}
{"SMILES": "NC(=O)c1ccc[n+]([C@@H]2O[C@H](COP(=O)([O-])OP(=O)(O)OC[C@H]3O[C@@H](n4cnc5c(N)ncnc54)[C@H](O)[C@@H]3O)[C@@H](O)[C@H]2O)c1", "target": "Poly [ADP-ribose] polymerase 1 (PARP1, Homo sapiens, UniProt P09874)", "test": "enzyme activity, inhibitor", "IC50": "3 µM and 2.9 µM"}
{"SMILES": "O=C(NO)c1cncc(OS(=O)(=O)Oc2ccc3ccccc3c2)c1", "target": "HDAC8", "test": "enzyme activity, inhibitor, fluorescence", "IC50": "0.422 µM"}
{"SMILES": "CC(C)C[C@H](NC(=O)c1cnccn1)C(=O)N[C@@H](C)C(=O)N[C@H](/C=C/S(C)(=O)=O)Cc1ccc(CN)cc1", "target": "Proteasome subunit beta type-8 (PSMB8, Homo sapiens, UniProt P28062)", "test": "enzyme activity, inhibitor", "conditions": "lysate", "IC50": "> 10 µM"}
{"SMILES": "O=c1[nH]c2c(nnn2Cc2ccccc2C(F)(F)F)c2ccccc12", "target": "PARP2", "test": "enzyme activity, inhibitor", "IC50": "> 10 µM"}
{"SMILES": "CCc1ccc(NS(=O)(=O)c2c(C)[nH]c(C)c2C(=O)N2CCCC2)cc1Cl", "target": "DRD3", "test": "β-arrestin recruitment, antagonist", "IC50": "11 µM"}
{"SMILES": "O=C(C1CCCCC1)N1CC(=O)N2CCc3ccccc3C2C1 (stereo not shown)", "target": "CES2", "test": "enzyme activity, inhibitor, fluorescence", "conditions": "with preincubation", "IC50": "> 100 µM"}
{"SMILES": "CCOC(=O)c1ccccc1-c1c2cc(Br)c(=O)c(Br)c-2oc2c(Br)c(O)c(Br)cc12", "target": "ALOX15", "test": "enzyme activity, inhibitor, absorbance", "IC50": "1.5 µM"}
{"SMILES": "COc1cc2c(cc1OC)C(=O)/C(=C/C1CCC1)C2", "target": "CES2", "test": "enzyme activity, inhibitor, fluorescence", "conditions": "with preincubation", "IC50": "15.5 µM"}
{"SMILES": "Cc1[nH]c(C)c(S(=O)(=O)Nc2ccc(C(F)(F)F)c(Cl)c2)c1C(=O)N1CCC(=O)C1", "target": "DRD3", "test": "β-arrestin recruitment, antagonist", "IC50": "4.3 µM"}
{"SMILES": "NC(=O)N1c2ccccc2C=Cc2ccccc21", "target": "CES2", "test": "enzyme activity, inhibitor, fluorescence", "conditions": "with preincubation", "IC50": "> 100 µM"}
{"SMILES": "Cc1[nH]c(C)c(S(=O)(=O)Nc2cc(Cl)c(C(F)(F)F)cc2Br)c1C(=O)N1CCC(F)(F)C1", "target": "DRD3", "test": "β-arrestin recruitment, antagonist", "IC50": "3.3 µM"}
{"SMILES": "C=CC(=O)Nc1cc(Nc2nccc(-c3cn(C)c4ccccc34)n2)c(OC)cc1N(C)CCN(C)C", "target": "CES2", "test": "enzyme activity, inhibitor, fluorescence", "conditions": "with preincubation", "IC50": "56.5 µM"}
{"SMILES": "O=C(COC(=O)c1ccccc1Nc1cccc(C(F)(F)F)c1)NNS(=O)(=O)c1ccccc1", "target": "Prostaglandin G/H synthase 1 (PTGS1, Ovis aries, UniProt P05979)", "test": "enzyme activity, inhibitor", "IC50": "15 to 26 µM and 25.3 µM"}
{"note": "Some of these lines once more:"}
{"SMILES": "COc1cccc(Cn2nnc3c4ccc(F)cc4c(=O)[nH]c32)c1", "target": "PARP2", "test": "enzyme activity, inhibitor", "IC50": "> 10 µM"}
{"SMILES": "COc1nc(N)nc(N)c1OCCCOc1ccccc1CCC(=O)O", "target": "Dihydrofolate reductase (Mycobacterium avium, UniProt O30463)", "test": "enzyme activity, inhibitor", "IC50": "> 5 µM"}
{"SMILES": "Nc1ncnc2c1c(Oc1cc(C(F)(F)F)ccn1)nn2C1CC1", "target": "Cytochrome P450 1A2 (CYP1A2, Homo sapiens, UniProt P05177)", "test": "enzyme activity, inhibitor", "system": "human, liver microsomes", "conditions": "10 min", "IC50": "< 1 µM and 0.46 µM"}
{"SMILES": "Cc1[nH]c(C)c(S(=O)(=O)Nc2ccc(C(=O)C(F)(F)F)c(Cl)c2)c1C(=O)N1CCC(F)(F)C1", "target": "DRD3", "test": "β-arrestin recruitment, antagonist", "IC50": "11.5 µM"}
{"SMILES": "O=C(NO)c1cccc(OS(=O)(=O)Oc2ccc(C(F)(F)F)cc2)c1", "target": "HDAC8", "test": "enzyme activity, inhibitor, fluorescence", "IC50": "1.22 µM"}
{"SMILES": "Fc1ccc(Cc2[nH]nc(-c3ccccn3)c2-c2ccnc3ccccc23)cc1", "target": "Serine/threonine protein kinase YCK2 (YCK2, Candida albicans, UniProt A0A1D8PKB4)", "test": "enzyme activity, inhibitor, ADP detection", "IC50": "> 4 µM and 7 µM"}
